Published values collected from several papers.
Each line is one published result; not all experiments were run side by side. Values joined by “and” are separate records of one study, mostly repeats; a detail may differ. Numbers after ± are the reported error.

SMILES | assay | test system | setting | scale | quantity | result
CN(C)C1(CNC(=O)c2ccc3c(c2)CCN3C(=O)c2ccccc2)CCOCC1 | – | male C57BL/6 mice | intraperitoneal, 50 mg/kg, 120 min | – | brain concentration | 39 ng/g
Fc1ccc([C@@H]2CCNC[C@H]2COc2ccc3c(c2)OCO3)cc1 | item: Shivering | healthy volunteers | oral, dose not given, given -1 h relative to LSD, with: LSD | direction not given | List of Complaints score | 0 score
CCc1ccc(CC/C=C/c2ccc3c(c2)C(=O)CC3)cc1 | – | Sprague-Dawley rat, male, serum | oral, 30 mg/kg/day, 14 days | – | total protein | 54.8 g/L
O=C(Nc1ccccc1)C1CCN(C(=O)Oc2cccnc2)CC1 | – | healthy women | oral, 60 mg, 7 days | – | adverse event Nausea | 0%
C[C@]1(CO)Cc2ncn(-c3ccc(C#N)c(Cl)c3)c2C(=O)O1 | item: involuntary muscle contractions | human | 20 mg single dose | – | subjects with drug-related TEAE | 14.3%
O=C1Nc2cc3[nH]nc(-c4ccncc4)c3cc2CN1Cc1ccccc1 | item: Dyspepsia | patients with advanced solid tumours | intravenous, dose not given | – | patients with TEAE | 11%
CCN1[C@@H](C(=O)NC23CCC(C(=O)O)(CC2)CC3)[C@H](c2cccc(Cl)c2F)[C@]2(C(=O)Nc3cc(Cl)ccc32)C12CCCCC2 | – | advanced solid tumour patients | oral, dose not given | – | anorexia | 4.8%
O=S(=O)(Nc1ccccc1)c1ccc(NC(=S)Nc2ccccc2)cc1 | item: CK | male mouse, blood | oral, 80 mg/kg daily, 14 days | – | serum enzyme activity | 3750 U/L
N#C[C@@H]1CC(F)(F)CN1C(=O)CNC(=O)c1ccnc2ccc(OCCCN3CCN(C(=O)CN4CCN(CC(=O)[O-])CCN(CC(=O)[O-])CC4)CC3)cc12.[18F-].[Al+3] | biodistribution, gamma counter | healthy rats, brain, muscle, bone, lung, spleen, liver, heart, blood | 2 h post-injection | – | tissue uptake | < 0.52 %ID/g
NCCCC[C@@H]1NC(=O)[C@@H](Cc2c[nH]c3ccccc23)NC(=O)[C@H](c2ccccc2)NC(=O)[C@@H]2C[C@@H](OC(=O)NCCN)CN2C(=O)[C@H](Cc2ccccc2)NC(=O)[C@H](Cc2ccc(OCc3ccccc3)cc2)NC1=O | – | healthy volunteers | subcutaneous, 600 µg twice daily, day 5, 12.00 h | – | QTcI change from baseline | 0.9 ms
CO[C@H]1C[C@@H]2CC[C@@H](C)[C@@](O)(O2)C(=O)C(=O)N2CCCC[C@H]2C(=O)O[C@H]([C@H](C)C[C@@H]2CC[C@@H](OC(=O)NCCOCCOCCOCCOCCOCCOCCOCCOCCC(=O)N3CCc4cc(Cn5nc(-c6ccc7oc(N)nc7c6)c6c(N)ncnc65)ccc4C3)[C@H](OC)C2)C[C@@H](O)[C@H](C)/C=C(\C)[C@@H](O)[C@@H](OC)C(=O)[C@H](C)C[C@H](C)/C=C/C=C/C=C/1C | – | patients with advanced solid tumours | intravenous, 8 mg weekly, grade 3 or higher | – | diarrhoea incidence | 0%
CC(C)[C@@H]1NC(=O)CNC(=O)[C@H](CC(N)=O)NC(=O)[C@H](CCCNC(=N)N)NC(=O)[C@H](Cc2ccc(O)cc2)NC(=O)[C@H](C(C)C)NC(=O)[C@@H](NC(=O)[C@@H](NC(=O)[C@H](CC(N)=O)NC(=O)[C@H](Cc2c[nH]c3ccccc23)NC(=O)[C@H](C)NC(=O)[C@H](Cc2ccccc2)NC(=O)CN)C(C)C)CSSC[C@@H](C(=O)N[C@@H](Cc2cnc[nH]2)C(=O)N[C@@H](CCCNC(=N)N)C(=O)N[C@@H](CCCNC(=N)N)C(=O)N[C@@H](C)C(=O)N[C@@H](CC(N)=O)C(N)=O)NC(=O)[C@H](C(C)C)NC(=O)[C@H](CCCNC(=N)N)NC1=O | – | ICR mouse, blood | intramammary, 10 mg/kg, day 5, 3 d dosing | – | creatinine | 86.1 ± 2.09 µmol/L
Cn1ncc(-c2nc(N[C@H]3CC[C@H](N)CC3)ncc2Cl)c1CC1CC1 | HPLC-MS/MS | patients, plasma | oral, 5 mg, day 1 | – | Cmax | 10.7 ng/mL
N#Cc1cc(NC(=O)[C@H]2c3ccccc3C(=O)N(CC(F)(F)F)[C@@H]2c2cccnc2)ccc1F | – | Beagle dog | oral, 100 mg/kg, no methemoglobinemia | – | AUC | ~95000 ng·h/mL
CC1(C)NC(=O)N(c2ccc(F)c(CC(F)(F)F)c2)C1=O | – | Schistosoma mansoni-infected NMRI mice | oral, 100 mg/kg, single dose | – | toxicity | toxic
C[C@]1(O)C[C@@](N)(c2ccc(-c3nc4n(c3-c3ccccc3)COc3ccncc3-4)cc2)C1 | – | human, advanced or metastatic solid tumours | 28 mg intermittent, phase I dose escalation | – | patients with Pruritus TEAE | 66.7%
CC(C)c1nc(N(C)S(C)(=O)=O)nc(-c2ccc(F)cc2)c1/C=C/[C@@H](O)C[C@@H](O)CC(=O)O | – | healthy human subjects | oral, dose not given, study CL-0537 safety set | – | incidence of Nasopharyngitis | 0%
O=c1ccc2ncc(=O)n3c2n1C[C@H]3CN1CCC(NCc2cc3c(cn2)OCCC3)CC1 | – | healthy human volunteers, plasma | oral, dose not given, with: itraconazole | relative to: compound alone | increase in AUC and Cmax | 40 to 50%

SMILES | assay | test system | setting | scale | quantity | result
Cc1c(COC(=O)[C@@H]2[C@H](/C=C(\Cl)C(F)(F)F)C2(C)C)cccc1-c1ccccc1 (racemic) | item: CYP2C9 | human, age 5 years, recombinant human CYP2C9 | 0.1 µM | – | enzyme contribution to clearance | 19.4%
COc1ccc(C[C@@H]2NC(=O)[C@H]([C@@H](C)O)NC(=O)[C@@H]3[C@@H]4CCN3C(=O)[C@@H]3Cc5cn(c6ccc(F)cc56)CCCCCCN(Cc5ccc(cc5)CCNC(=O)[C@]5(C)CCCN5C2=O)C(=O)CCC(=O)N[C@@H](C)C(=O)N[C@H](CNC(=O)CCCCC[N+](C)(C)C)C(=O)N[C@@H](Cc2cccc(c2)CNC(=O)CO4)C(=O)N3)cc1 | item: Dyspepsia | humans | concentration not given, Study-003 | – | participants with adverse event | 3.2%
C[C@@H](NC(=O)N1C(=O)[C@H](Cc2ccnc(N)c2)[C@H]1C(=O)O)C1CCCCC1 | – | healthy adult Chinese volunteers | continuous intravenous infusion, 1.0 mg/kg/h, 5-day infusion, CTCAE 5.0 grading | – | incidence of AEs leading to death | 0%
CC(C)CC(=O)OC[C@H]1O[C@@](C#N)(c2ccc3c(N)ncnn23)[C@H](O)[C@@H]1O | – | mouse plasma | 0.9 µM | – | fraction bound | 0.863
COc1ccc2nc3cc(Cl)ccc3c(Nc3cc(CN4CCCC4)c(O)c(CN4CCCC4)c3)c2n1 | – | mouse, blood | intraperitoneal, 28 mg/kg | – | creatinine level | 24.5 µmol/L
Cn1cc(-c2nc(N[C@@H]3CCCC[C@@H]3N)c(F)c3c2C(=O)NC3)cn1 | item: Melaena | patients with relapsed or refractory AML | oral, 80 mg twice daily | – | hemorrhagic adverse events | 17%
CC(C)[C@H](N)C(=O)NCCCS(=O)(=O)O | – | human, plasma | oral, 265 mg twice daily, 2 h, week 65 | – | plasma concentration | 3550 ng/mL
COc1ccc([C@@H](O)c2cc(-c3ncnc4cc(N5CCOCC5)ccc34)c(F)cc2Cl)nn1 | – | patients, advanced solid tumours | oral, 300 mg twice daily, treatment-emergent, with: avelumab | – | dehydration incidence | 4%
CC(C)C[C@@H](NC(=O)[C@H](Cc1ccccc1)NC(=O)CNC(=O)[C@@H](C)NC(=O)[C@H](Cc1ccc(O)cc1)NC(=O)[C@@H]1CCCN1C(=O)[C@@H]1CCCN1C(=O)c1ccc[n+](C)c1)C(=O)O | – | rat hypothalamus homogenate | 100 µM, pH 7.4, 37 °C | – | half-life | 28 min
CCCCCCCCCC(=O)N[C@@H](Cc1c[nH]c2ccccc12)C(=O)N[C@H](CC(N)=O)C(=O)N[C@@H](CC(=O)O)C(=O)N[C@@H]1C(=O)NCC(=O)N[C@@H](CCCN)C(=O)N[C@@H](CC(=O)O)C(=O)N[C@H](C)C(=O)N[C@@H](CC(=O)O)C(=O)NCC(=O)N[C@H](CO)C(=O)N[C@@H]([C@H](C)CC(=O)O)C(=O)N[C@@H](CC(=O)c2ccccc2N)C(=O)O[C@@H]1C | population PK model | human | intravenous, two-compartment model | – | intercompartmental clearance | 0.0428 L/min
CCCCCCCCCCCCCCCC(=O)N[C@@H](CCC(=O)NCCCC[C@H](NC(=O)[C@H](CC(=O)O)NC(=O)[C@H](CO)NC(=O)[C@@H](NC(=O)[C@H](Cc1ccccc1)NC(=O)[C@@H](NC(=O)CNC(=O)[C@H](CCC(N)=O)NC(=O)[C@H](CO)NC(=O)[C@@H](N)Cc1c[nH]cn1)[C@@H](C)O)[C@@H](C)O)C(=O)N[C@@H](CO)C(=O)N[C@@H](CCC(=O)O)C(=O)N[C@@H](Cc1ccc(O)cc1)C(=O)N[C@@H](CC(C)C)C(=O)N[C@@H](CC(=O)O)C(=O)N[C@@H](CO)C(=O)N[C@@H](CCC(=O)O)C(=O)N[C@@H](CCCNC(=N)N)C(=O)N[C@@H](C)C(=O)N[C@@H](CCCNC(=N)N)C(=O)N[C@@H](CC(=O)O)C(=O)N[C@@H](Cc1ccccc1)C(=O)N[C@H](C(=O)N[C@@H](C)C(=O)N[C@@H](Cc1c[nH]c2ccccc12)C(=O)N[C@@H](CC(C)C)C(=O)N[C@@H](CCC(=O)O)C(=O)N[C@@H](C)C(=O)NCC(=O)NCC(=O)O)C(C)C)C(=O)O | item: Tachycardia | humans all renal groups | subcutaneous, 100 µg single dose | – | treatment-related adverse events | 5.4%
CC(=O)c1c(C)c2cnc(Nc3ccc(C4CCN(CCS(C)(=O)=O)CC4)cn3)nc2n(C2CCCC2)c1=O | – | human, plasma | oral, 100 mg twice daily, single dose, monotherapy | – | Vd | 793 L
COc1ccc([C@@H]2CC(=O)c3c(O)cc(O)cc3O2)cc1O | – | male Sprague-Dawley rat, obese | oral, 100 mg/kg of neohesperidin, 12 to 24 h, after β-glucuronidase/sulfatase hydrolysis | – | urinary excreted amount, total | 9340 ± 344 ng
Cn1c(-c2ccc(C(N)=O)cc2F)nnc1C(C)(C)Oc1c(F)cc(Cl)cc1F | – | human | oral, 60 mg, single ascending dose | – | subjects with drug-related TEAE | 0%
CCN(CCO)CCCC(C)Nc1ccnc2cc(Cl)ccc12 (stereo not drawn) | – | newly diagnosed glioblastoma patients | oral, 400 mg/dose, grade 2, with: radiotherapy and temozolomide | – | fatigue patients | 43%
COc1cc2c(Oc3ccc4[nH]c(C)cc4c3F)ccnc2cc1OCC1(N)CC1 | – | paediatric recurrent refractory sarcoma | 10 mg | – | grade 1 or 2 Leukopenia | 25%
N.N.[Cl][Pt][Cl] | – | mouse, serum | dose not given | – | AST | 123 IU/L and 186 IU/L and 86 IU/L
CC(C)n1c(C2CCNCC2)nc2c([N+](=O)[O-])c(Br)c(Br)cc21 | item: Thrombocytopenia | AML patients | dose not given, all doses | – | grade ≥3 adverse events | 33%
